# Literature values, collected from citations in different studies.
# Protocols differ between the studies behind these lines. Several values in a cell are separate wells, animals, samples, runs or records. Numbers after ± are the reported error.
# Chain of UniProt Q9H093 (whole entry, looked up): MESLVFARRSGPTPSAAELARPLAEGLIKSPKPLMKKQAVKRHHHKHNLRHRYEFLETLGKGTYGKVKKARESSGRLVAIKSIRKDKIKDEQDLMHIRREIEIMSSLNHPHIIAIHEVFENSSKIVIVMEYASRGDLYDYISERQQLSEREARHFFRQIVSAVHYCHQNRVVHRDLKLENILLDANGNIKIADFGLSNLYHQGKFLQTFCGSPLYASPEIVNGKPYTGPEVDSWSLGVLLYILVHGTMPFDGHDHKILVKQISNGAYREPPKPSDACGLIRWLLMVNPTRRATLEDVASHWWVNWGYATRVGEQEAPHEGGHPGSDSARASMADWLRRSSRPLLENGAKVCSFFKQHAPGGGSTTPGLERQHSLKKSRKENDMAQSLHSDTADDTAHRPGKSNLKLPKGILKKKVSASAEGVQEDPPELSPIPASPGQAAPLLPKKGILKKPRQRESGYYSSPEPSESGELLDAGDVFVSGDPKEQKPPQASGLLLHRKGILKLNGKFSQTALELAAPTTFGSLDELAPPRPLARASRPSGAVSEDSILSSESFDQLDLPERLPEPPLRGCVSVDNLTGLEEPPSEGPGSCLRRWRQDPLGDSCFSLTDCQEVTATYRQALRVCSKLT
SMILES,target or system,assay,test system,setting,how to read,quantity,result
Nc1cc(C(F)(F)F)c(-c2nc(N3CCOCC3)nc(N3CCOCC3)n2)cn1,"NUAK2 (Homo sapiens, UniProt Q9H093)",enzyme activity,,10 µM,reference: untreated,remaining activity,100%
CCNS(=O)(=O)c1ccc(OC)cc1C1(O)CCN(Cc2cccc(Oc3ccccc3OC)c2)CC1,human CCR8 F88A mutant (TM2),"IP accumulation, agonist",,,,EC50,197 nM
CC(C)(C)c1cc(C(C)(C)C)c(NC(=O)c2c[nH]c3ccccc3c2=O)cc1O,G551D-CFTR,potentiator,Fischer rat thyroid cells,,,EC50,100 nM
CCN(CC)CCCC(C)Nc1ccnc2cc(Cl)ccc12 (centres unmarked),NR4A2 (Nurr1),"agonist, cell-based",,,,EC50,47000 ± 5000 nM
CCCCCCCC/C=C\CCCCCCCC(=O)O,GPR3,agonist,,,,EC50,~300000 nM
O=C(O)c1cc(Cl)ccc1S(=O)(=O)NCCCCN1C(=O)c2cccc3cccc(c23)C1=O,human LPA2 receptor,agonist,,,,EC50,0.005 nM and ~0.005 nM
Oc1cc2c(cc1CN1CCN(c3cccc(Cl)c3)CC1)oc1ccccc12,NR4A2 (Nurr1),"agonist, cell-based",,,,EC50,110 ± 50 nM
COc1ccccc1Oc1cccc(CN2CCC(O)(c3ccccc3C(=O)O)CC2)c1,human CCR8 F84A mutant (TM2),"IP accumulation, agonist",,,,EC50,7 nM
[Ca],KCa3.1 channel,"ion current, activator",,,,EC50,~250 nM
Clc1ccc2[nH]ccc2c1,NR4A2 (Nurr1),"agonist, cell-based",,,,EC50,> 5000 nM
CC(C)(O/N=C(\C(=O)N[C@@H]1C(=O)N2C(C(=O)[O-])=C(C[n+]3ccccc3)CS[C@H]12)c1csc(N)n1)C(=O)O,Escherichia coli,,clinical isolate RKI-No_593/16,,,MIC,4 µg/mL
CC(C)CCN[C@@H]1CCc2cc(O)c(N3CC(=O)NS3(=O)=O)c(F)c2C1,PTPN2/PTPN1,cell-based,,,,EC50,~176 nM
CNC(C)C1CCC(N)C(OC2C(N)CC(N)C(OC3OCC(C)(O)C(NC)C3O)C2O)O1 (centres unmarked),Escherichia coli,,clinical isolate RKI-No_462/16,,,MIC,1 µg/mL
COc1ccccc1Oc1cccc(CN2CCC(NC(=O)C(CCN3CCCC3)c3ccccc3)CC2)c1 (centres unmarked),human CCR8 F88A mutant (TM2),"IP accumulation, agonist",,,,EC50,31 nM

# For quick reference, copied from above:
SMILES,target or system,assay,test system,setting,how to read,quantity,result
Oc1cc2c(cc1CN1CCN(c3cccc(Cl)c3)CC1)oc1ccccc12,NR4A2 (Nurr1),"agonist, cell-based",,,,EC50,110 ± 50 nM
